Measurements of several laboratories.
Each line is one published result; not all experiments were run side by side. “And” joins repeats or separate records; there may be more than shown.
Sequence of UniProt Q13310 (whole entry, looked up): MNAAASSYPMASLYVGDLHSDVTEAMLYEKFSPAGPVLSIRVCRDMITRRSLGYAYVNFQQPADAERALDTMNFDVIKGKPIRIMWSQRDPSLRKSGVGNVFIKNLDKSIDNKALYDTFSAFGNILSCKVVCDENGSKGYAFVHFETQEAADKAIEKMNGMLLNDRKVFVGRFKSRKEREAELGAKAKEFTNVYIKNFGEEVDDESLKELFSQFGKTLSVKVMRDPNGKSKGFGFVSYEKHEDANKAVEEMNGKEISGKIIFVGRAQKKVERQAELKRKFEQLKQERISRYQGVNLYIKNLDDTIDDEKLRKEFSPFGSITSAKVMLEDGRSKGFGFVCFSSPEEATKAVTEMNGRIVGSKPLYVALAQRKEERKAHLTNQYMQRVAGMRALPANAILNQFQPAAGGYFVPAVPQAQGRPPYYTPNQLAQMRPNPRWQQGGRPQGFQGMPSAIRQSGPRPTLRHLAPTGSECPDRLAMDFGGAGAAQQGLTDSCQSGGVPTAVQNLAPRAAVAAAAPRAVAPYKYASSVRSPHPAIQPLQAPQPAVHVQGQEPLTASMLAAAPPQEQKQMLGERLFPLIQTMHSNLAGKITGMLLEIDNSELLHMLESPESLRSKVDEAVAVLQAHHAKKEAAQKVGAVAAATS
Sequence of UniProt Q969F8 (whole entry, looked up): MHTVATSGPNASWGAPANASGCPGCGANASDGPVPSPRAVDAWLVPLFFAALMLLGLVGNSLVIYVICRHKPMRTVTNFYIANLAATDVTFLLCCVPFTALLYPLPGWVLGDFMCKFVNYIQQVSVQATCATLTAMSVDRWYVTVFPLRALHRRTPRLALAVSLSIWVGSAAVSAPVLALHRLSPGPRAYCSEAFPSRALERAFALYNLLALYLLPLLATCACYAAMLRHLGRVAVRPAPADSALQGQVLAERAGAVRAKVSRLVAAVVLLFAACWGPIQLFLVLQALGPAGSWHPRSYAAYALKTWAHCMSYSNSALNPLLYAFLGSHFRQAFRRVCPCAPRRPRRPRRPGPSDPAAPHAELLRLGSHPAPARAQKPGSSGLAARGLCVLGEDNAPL

With CC[C@H](C)[C@H](NC(=O)[C@H](Cc1ccccc1)NC(=O)[C@H](CCC(=O)O)NC(=O)[C@H](CCCNC(=N)N)NC(=O)[C@H](C)NC(=O)[C@H](C)NC(=O)[C@H](CCC(N)=O)NC(=O)[C@H](CCC(=O)O)NC(=O)[C@H](CCC(=O)O)NC(=O)[C@H](CC(C)C)NC(=O)[C@H](Cc1ccc(O)cc1)NC(=O)[C@H](CO)NC(=O)[C@H](CO)NC(=O)[C@@H](NC(=O)[C@H](CC(=O)O)NC(=O)[C@H](CO)NC(=O)[C@@H](NC(=O)[C@H](Cc1ccccc1)NC(=O)[C@@H](NC(=O)CNC(=O)[C@H](CCC(=O)O)NC(=O)[C@H](C)NC(=O)CCc1c[nH]cn1)[C@@H](C)O)[C@@H](C)O)C(C)C)C(=O)N[C@@H](C)C(=O)N[C@@H](Cc1c[nH]c2ccccc12)C(=O)N[C@@H](CC(C)C)C(=O)N[C@H](C(=O)N[C@@H](CCCNC(=N)N)C(=O)NCC(=O)N[C@@H](CCCNC(=N)N)C(=O)N[C@@H](CCCCNC(=O)COCCOCCNC(=O)COCCOCCNC(=O)CC[C@H](NC(=O)CCCCCCCCCCCCCCCCC(=O)O)C(=O)O)C(=O)NCC(=O)NCC(=O)N[C@@H](CO)C(=O)N[C@@H](CCCCNc1c(NCCCCCN(O)C(=O)CCC(=O)NCCCCCN(O)C(=O)CCC(=O)NCCCCCN(O)C(C)=O)c(=O)c1=O)C(=O)O)C(C)C [zirconium-89 labelled] the tissue uptake was 0.11 %ID/g (ex vivo gamma counting; rat, intestine content; subcutaneous, 3 nmol/kg, 24 h, added: [89Zr]-labelled peptide).
CN1CC[C@@H](c2c(O)cc(O)c3c(=O)cc(-c4ccc(C(F)(F)F)cc4Cl)oc23)[C@@H]1CO: “patients with adverse event” 0% (item: Anemia; B-cell malignancies; oral, 100 mg, intermittent dosing).
C[C@H]1CN(c2n[nH]c3nc(N[C@H]4CC[C@H](NS(=O)(=O)CCC(F)(F)F)CC4)ncc23)CCO1 has a remaining binding of 1.44 (Polyadenylate-binding protein 4 (Homo sapiens, UniProt Q13310); Kinobeads competition, item: PABPC4; 0.8 µM, unit not given; relative to: vehicle).
C[C@@H](O)[C@@H](CO)NC(=O)[C@@H](CCCNC(=N)N)NC(=O)[C@@H]1CCCN1C(=O)[C@@H]1CSSC[C@H](NC(=O)[C@H](Cc2ccccc2)NC(=O)CN2CCN(CC(=O)O)CCN(CC(=O)O)CCN(CC(=O)O)CC2)C(=O)N[C@@H](Cc2ccc(O)cc2)C(=O)N[C@@H](Cc2ccccc2)C(=O)N[C@@H](CCC(N)=O)C(=O)N[C@@H](CC(N)=O)C(=O)N1 [gallium-68 labelled] has a tissue uptake of 4.32 %ID/g (Wistar rat, healthy, urinary bladder; intravenous, 8 MBq, 30 min).
The hemolysis of CC[C@H](C)[C@H](NC(=O)[C@H](C)NC(=O)[C@H](CCCCN)NC(=O)[C@H](CCCCN)NC(=O)[C@H](CCCCN)NC(=O)[C@H](CCCCN)NC(=O)[C@H](CCCCN)NC(=O)[C@@H](N)CCCCN)C(=O)N[C@@H](CO)C(=O)NCC(=O)N[C@@H](CO)C(=O)N[C@@H](CC(C)C)C(=O)N[C@H](C(=O)N[C@H](C(=O)N[C@@H](CC(C)C)C(=O)N[C@@H](Cc1ccccc1)C(=O)NCC(=O)N[C@@H](Cc1ccc(O)cc1)C(N)=O)[C@@H](C)O)C(C)C is reported as 23% (human erythrocytes; 400 µM, 1 h; relative to: Triton X-100).
The half-life of CCN(CC)C(=O)[C@@H]1C=C2c3cccc4[nH]cc(c34)C[C@H]2N(C)C1 is reported as 3.86 h and 3.13 h and 3.14 h and 3.56 h and 4.37 h and 4.59 h and 4.74 h (human; oral, 100 µg).
Under “AE leading to discontinuation”, CO[C@H]1C[C@@H]2CC[C@@H](C)[C@@](O)(O2)C(=O)C(=O)N2CCCC[C@H]2C(=O)O[C@H]([C@H](C)C[C@@H]2CC[C@@H](OC(=O)NCCOCCOCCOCCOCCOCCOCCOCCOCCC(=O)N3CCc4cc(Cn5nc(-c6ccc7oc(N)nc7c6)c6c(N)ncnc65)ccc4C3)[C@H](OC)C2)C[C@@H](O)[C@H](C)/C=C(\C)[C@@H](O)[C@@H](OC)C(=O)[C@H](C)C[C@H](C)/C=C/C=C/C=C/1C is recorded as 12.5% (patients with advanced solid tumours; intravenous, 8 mg weekly, any grade).
Under “grade 3 Thrombocytopenia”, COc1cc2c(Oc3ccc4[nH]c(C)cc4c3F)ccnc2cc1OCC1(N)CC1 is recorded as 0% (paediatric recurrent refractory sarcoma; 10 mg).
With CC[C@H](C)[C@H](NC(=O)[C@H](CCCCN)NC(=O)[C@H](CCCNC(=N)N)NC(=O)[C@H](CCCCN)NC(=O)[C@H](CCCNC(=N)N)NC(=O)[C@H](CCCCN)NC(=O)[C@@H](N)CCCNC(=N)N)C(=O)N[C@@H](CO)C(=O)N[C@@H](Cc1ccccc1)C(=O)N[C@@H](CC(C)C)C(=O)NCC(=O)N[C@@H](CO)C(=O)N[C@@H](CCCCN)C(=O)N[C@H](C(=O)N[C@H](C(=O)N[C@H](C(=O)N[C@@H](CC(C)C)C(=O)N[C@@H](CC(C)C)C(=O)N[C@@H](CCCCN)C(=O)N[C@@H](CCCNC(=N)N)C(N)=O)C(C)C)C(C)C)C(C)C the hemolysis was 23% (human erythrocytes; 400 µM, 1 h; relative to: Triton X-100).
The IC50 of COc1cc(Nc2ncc(F)c(Nc3ccc4c(n3)NC(=O)C(C)(C)O4)n2)cc(OC)c1OC is reported as over 10 µM (KiSS-1 receptor (KISS1R, Homo sapiens, UniProt Q969F8)).
With CNC(=O)Oc1cccc2c1OC(C)(C)C2O (stereo not drawn) the IC10 was 172 µM (SH-SY5Y; cell viability; 24 h, nominal concentration).
With Cc1cc(C(=O)NC(C)(C)COc2cccc3c2C(N)=NS(=O)(=O)N3)cc(C)n1 the revertant ratio was 1 (Salmonella typhimurium; Ames test, confirmatory; TA1537; 1000 µg/plate, added: rat liver S9; relative to: solvent control).
